{"data": "Measurements gathered from unrelated publications", "cell line": "U-251", "note": "Protocols differ between the studies behind these lines."}
{"SMILES": "O=C(O)C(CO)NCc1cc(Cl)c(OCc2cccc(-c3ccccc3)c2Br)cc1OCc1cccnc1 (stereo not drawn)", "assay": "cell growth or viability, MTT", "endpoint": "IC50", "value": "> 10 µM"}
{"SMILES": "O=C(Nc1nnc2c1c(-c1ccc(Cl)cc1)nc1sc(=Cc3ccco3)c(=O)n12)c1ccccc1 (mixture of isomers)", "assay": "SRB", "conditions": "10 µM, NCI60 single-dose screen", "how to read": "reference: untreated", "endpoint": "cell growth", "value": "48.7%"}
{"SMILES": "COc1cc(/C=C/C(=O)/C=C(O)/C=C/c2ccc(OCC(=O)N3CCOCCOCCOCCOCCOCC3)c(OC)c2)ccc1OCC(=O)N1CCOCCOCCOCCOCCOCC1", "assay": "cell growth or viability, SRB", "conditions": "25 µM", "endpoint": "inhibition", "value": "100%"}
{"SMILES": "Cc1ccc([N+](=O)[O-])cc1S(=O)(=O)N(C)/N=C/c1cnc2ccc(Br)cn12", "assay": "MTS", "conditions": "NCI60 panel", "endpoint": "IC50", "value": "0.253 µM"}
{"SMILES": "CC(C)OC(=O)[C@H](CO)NCc1cc(Cl)c(OCc2cccc(-c3ccccc3)c2Br)cc1OCc1cccnc1", "assay": "cell growth or viability, MTT", "endpoint": "IC50", "value": "> 10 µM"}
{"SMILES": "COc1cc(/C=C/C(=O)/C=C(O)/C=C/c2ccc(OCC(=O)N3CCOCCOCCOCCOCC3)c(OC)c2)ccc1OCC(=O)N1CCOCCOCCOCCOCC1", "assay": "cell growth or viability, SRB", "conditions": "25 µM", "endpoint": "inhibition", "value": "100%"}
{"SMILES": "COC(=O)[C@H](C)NC(=O)[C@H](C)NC(=O)c1csc(-c2cccnc2)n1", "assay": "cell growth or viability", "endpoint": "EC50", "value": "> 30 µM"}
{"SMILES": "Cn1ncc(-c2ccc3c(=O)[nH]nc(CN)c3c2)c1-c1c(F)c(Cl)cc(OC2CC2)c1C#N", "assay": "cell viability, inhibitor, CellTiter-Glo", "conditions": "120 h, baseline-subtracted", "endpoint": "IC50", "value": "2.44 µM"}
{"SMILES": "C=C(NC(=O)c1csc(-c2cccnc2)n1)C(=O)NC(=C)C(=O)OC", "assay": "cell growth or viability", "endpoint": "EC50", "value": "3.6 µM"}
{"SMILES": "CN(C)CCN1CCN(c2ccc3nc(-c4ccc5nc(-c6ccc(C(F)(F)F)cc6)[nH]c5c4)[nH]c3c2)CC1", "assay": "SRB", "conditions": "10 µM, 48 h", "endpoint": "growth percent", "value": "60%"}
{"SMILES": "CCCC(CCC)C(=O)OCc1cn(-c2cc3ccccc3oc2=O)nn1", "conditions": "10 µM, CNS cancer cell line, NCI60", "endpoint": "growth percentage", "value": "96.8%"}
{"SMILES": "C1=[N+]2CCCC[N+]3=Cc4ccc5[n]4[Au-]23[n]2c1ccc2-c1nc2ccccc2nc1-5.F[P-](F)(F)(F)(F)F", "conditions": "NCI60 five-dose screen", "endpoint": "IC50", "value": "2.6 µM"}
{"note": "Excerpt of the above:"}
{"SMILES": "O=C(Nc1nnc2c1c(-c1ccc(Cl)cc1)nc1sc(=Cc3ccco3)c(=O)n12)c1ccccc1 (mixture of isomers)", "assay": "SRB", "conditions": "10 µM, NCI60 single-dose screen", "how to read": "reference: untreated", "endpoint": "cell growth", "value": "48.7%"}
